Assay results of several laboratories.
Compare with care: the assays were run in different laboratories. Numbers after ± are the reported error.
C3AR1: C3a anaphylatoxin chemotactic receptor (C3AR1, Homo sapiens, UniProt Q16581)
Chain of UniProt Q16581 (whole entry, looked up): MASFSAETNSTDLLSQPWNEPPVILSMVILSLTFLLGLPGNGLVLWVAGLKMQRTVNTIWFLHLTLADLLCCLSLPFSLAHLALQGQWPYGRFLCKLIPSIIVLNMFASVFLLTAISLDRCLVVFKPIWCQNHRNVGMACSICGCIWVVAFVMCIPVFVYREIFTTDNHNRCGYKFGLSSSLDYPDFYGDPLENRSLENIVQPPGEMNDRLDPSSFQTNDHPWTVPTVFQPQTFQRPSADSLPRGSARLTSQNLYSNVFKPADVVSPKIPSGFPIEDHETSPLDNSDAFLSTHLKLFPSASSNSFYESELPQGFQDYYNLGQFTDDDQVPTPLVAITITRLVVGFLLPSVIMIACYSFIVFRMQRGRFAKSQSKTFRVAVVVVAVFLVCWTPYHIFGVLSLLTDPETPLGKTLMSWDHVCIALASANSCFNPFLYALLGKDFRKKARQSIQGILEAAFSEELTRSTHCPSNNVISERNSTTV
CNR2: Cannabinoid receptor 2 (CNR2, Homo sapiens, UniProt P34972)
Chain of UniProt P34972 (whole entry, looked up): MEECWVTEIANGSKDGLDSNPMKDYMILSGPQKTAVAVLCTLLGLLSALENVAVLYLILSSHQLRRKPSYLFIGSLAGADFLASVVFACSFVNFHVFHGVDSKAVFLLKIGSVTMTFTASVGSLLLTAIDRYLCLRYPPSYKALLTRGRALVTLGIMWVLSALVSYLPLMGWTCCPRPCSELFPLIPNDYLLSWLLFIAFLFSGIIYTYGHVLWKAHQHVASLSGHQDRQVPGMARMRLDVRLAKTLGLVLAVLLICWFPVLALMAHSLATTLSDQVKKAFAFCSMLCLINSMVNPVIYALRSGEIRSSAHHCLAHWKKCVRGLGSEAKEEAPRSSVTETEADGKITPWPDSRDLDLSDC
Chain of UniProt Q92847 (whole entry, unmodified, looked up): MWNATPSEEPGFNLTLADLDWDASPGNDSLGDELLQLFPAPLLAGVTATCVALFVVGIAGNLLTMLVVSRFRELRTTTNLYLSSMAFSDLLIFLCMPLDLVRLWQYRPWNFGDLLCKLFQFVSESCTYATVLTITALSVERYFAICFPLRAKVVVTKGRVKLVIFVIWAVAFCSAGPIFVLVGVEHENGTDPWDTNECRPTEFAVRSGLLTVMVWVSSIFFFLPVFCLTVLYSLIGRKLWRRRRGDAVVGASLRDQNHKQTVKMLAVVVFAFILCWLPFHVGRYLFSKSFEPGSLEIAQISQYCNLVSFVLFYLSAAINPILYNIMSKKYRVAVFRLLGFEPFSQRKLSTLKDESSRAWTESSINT
Chain of UniProt Q9NSD7 (whole entry, unmodified, looked up): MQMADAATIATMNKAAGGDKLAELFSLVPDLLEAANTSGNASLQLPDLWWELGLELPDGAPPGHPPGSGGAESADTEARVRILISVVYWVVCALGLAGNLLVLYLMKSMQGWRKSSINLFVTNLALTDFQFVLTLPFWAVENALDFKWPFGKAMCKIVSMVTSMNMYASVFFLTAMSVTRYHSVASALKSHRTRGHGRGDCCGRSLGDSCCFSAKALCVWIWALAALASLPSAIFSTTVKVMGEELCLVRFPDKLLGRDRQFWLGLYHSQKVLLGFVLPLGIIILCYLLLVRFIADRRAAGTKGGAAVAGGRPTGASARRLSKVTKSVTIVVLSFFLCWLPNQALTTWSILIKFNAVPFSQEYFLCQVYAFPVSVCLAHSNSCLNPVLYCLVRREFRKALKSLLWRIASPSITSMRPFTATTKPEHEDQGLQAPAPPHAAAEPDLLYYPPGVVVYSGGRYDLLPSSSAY
Chain of UniProt O43193 (whole entry, unmodified, looked up): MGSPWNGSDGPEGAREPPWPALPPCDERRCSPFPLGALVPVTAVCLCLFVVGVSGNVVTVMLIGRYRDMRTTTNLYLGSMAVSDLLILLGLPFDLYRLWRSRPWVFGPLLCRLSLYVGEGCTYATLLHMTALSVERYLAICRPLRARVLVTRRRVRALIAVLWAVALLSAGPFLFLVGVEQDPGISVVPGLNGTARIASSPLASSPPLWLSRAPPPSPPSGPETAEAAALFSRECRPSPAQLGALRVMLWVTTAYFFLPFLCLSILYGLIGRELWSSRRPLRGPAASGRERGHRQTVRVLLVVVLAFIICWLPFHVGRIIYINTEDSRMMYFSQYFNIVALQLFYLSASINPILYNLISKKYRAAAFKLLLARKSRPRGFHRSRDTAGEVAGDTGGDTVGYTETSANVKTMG
Chain of UniProt P30968 (whole entry, looked up): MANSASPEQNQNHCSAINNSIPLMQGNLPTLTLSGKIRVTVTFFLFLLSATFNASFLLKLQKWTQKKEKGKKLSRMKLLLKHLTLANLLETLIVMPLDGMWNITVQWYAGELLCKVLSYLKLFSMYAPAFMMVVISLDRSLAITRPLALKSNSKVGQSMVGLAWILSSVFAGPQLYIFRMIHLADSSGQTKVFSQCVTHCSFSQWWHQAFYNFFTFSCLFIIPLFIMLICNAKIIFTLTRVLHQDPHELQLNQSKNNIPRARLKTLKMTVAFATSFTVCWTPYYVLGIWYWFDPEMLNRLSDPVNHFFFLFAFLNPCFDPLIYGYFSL
Chain of UniProt Q8TDU9 (whole entry, unmodified, looked up): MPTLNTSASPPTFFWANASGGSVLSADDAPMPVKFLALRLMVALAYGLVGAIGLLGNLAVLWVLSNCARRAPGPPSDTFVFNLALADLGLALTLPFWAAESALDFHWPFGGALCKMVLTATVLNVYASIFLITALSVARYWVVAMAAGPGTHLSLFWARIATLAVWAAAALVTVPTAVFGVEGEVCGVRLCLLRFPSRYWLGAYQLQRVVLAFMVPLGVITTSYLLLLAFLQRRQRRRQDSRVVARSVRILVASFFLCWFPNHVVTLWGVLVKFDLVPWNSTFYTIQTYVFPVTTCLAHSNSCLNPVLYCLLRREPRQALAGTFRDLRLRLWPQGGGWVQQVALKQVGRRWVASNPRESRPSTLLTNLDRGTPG

Compound | target or system | assay | system | setting | how to read | endpoint | result
CC(C)C[C@H](NC(=O)[C@@H](N)[C@@H](C)O)C(=O)N[C@@H](CCC(N)=O)C(=O)N1CCC[C@H]1C(=O)N1CCC[C@H]1C(=O)N[C@@H](C)C(=O)N[C@@H](CO)C(=O)N[C@@H](CO)C(=O)N[C@@H](CCCNC(=N)N)C(=O)N[C@@H](CCCNC(=N)N)C(=O)N[C@@H](CCCNC(=N)N)C(=O)N[C@@H](Cc1c[nH]cn1)C(=O)N[C@@H](Cc1ccccc1)C(=O)N[C@@H](Cc1c[nH]cn1)C(=O)N[C@@H](Cc1c[nH]cn1)C(=O)N[C@@H](C)C(=O)N[C@@H](CC(C)C)C(=O)N1CCC[C@H]1C(=O)N1CCC[C@H]1C(=O)N[C@@H](C)C(=O)N[C@@H](CCCNC(=N)N)C(=O)O | C3AR1 | cAMP response, agonist, GloSensor |  |  | reference: TLQP-21 | Emax | 56.4 ± 2.71%
CCOC(=O)[C@@](CC)(CCCSCCOCCOCCN)NC(=O)c1ccc(C2CC2)c(Cc2ccc(F)cc2)n1 | CNR2 | cAMP, agonist |  |  |  | Emax | 81%
COC1CN([C@H]2CC[C@H]([C@@]3(C)Oc4c(Cl)cc(C(=O)NCc5c(SC)cc(C)[nH]c5=O)c(C)c4O3)CC2)C1 |  | RNA-seq, refers to: ANP32B | human, whole blood | dose not given, 24 h | reference: pretreatment baseline | log2 fold change | 1.59
CCOC(=O)[C@](CC)(CCCSCCOCCOCCNC(=O)OC(C)(C)C)NC(=O)c1ccc(C2CC2)c(Cc2ccc(F)cc2)n1 | CNR2 | cAMP, agonist |  |  |  | Emax | 93%
CC[C@H](C)[C@@H]1NC(=O)[C@H](Cc2ccccc2)NC(=O)[C@H](CCC(=O)O)NC(=O)[C@H](CCCNC(=N)N)NC(=O)CNC(=O)[C@@H](NC(=O)[C@H](CC(C)C)NC(=O)[C@H](CCCNC(=N)N)NC(=O)[C@@H](NC(=O)CNC(=O)[C@H](Cc2ccc(O)cc2)NC(=O)[C@@H]2CCCN2C(=O)[C@H](C)NC(=O)[C@H](C)NC(=O)[C@@H](N)CCCNC(=N)N)C(C)C)CSSC[C@@H]2NC(=O)[C@@H](NC(=O)[C@H](CO)NC(=O)[C@H](CO)NC(=O)[C@H](CO)NC(=O)[C@H](CC(C)C)NC(=O)CNC(=O)[C@H](C)NC(=O)[C@H](CC(C)C)NC(=O)[C@@H](NC(=O)[C@@H](N)CC(=O)O)C(C)C)CSSC[C@H](NC(=O)CNC(=O)[C@H](Cc3c[nH]c4ccccc34)NC(=O)[C@H](CCCCN)NC2=O)C(=O)N[C@@H](CO)C(=O)N[C@@H](CCCCN)C(=O)N[C@@H](CO)C(=O)N[C@@H](CCC(=O)O)C(=O)N[C@@H]([C@@H](C)CC)C(=O)N[C@@H](CO)C(=O)N[C@@H](CO)C(=O)N[C@@H](CC(C)C)C(=O)N[C@H](C(=O)O)CSSC[C@@H](C(=O)NCC(=O)NCC(=O)N[C@@H](CO)C(=O)N[C@@H](CCCNC(=N)N)C(=O)N[C@@H](Cc2c[nH]c3ccccc23)C(=O)O)NC(=O)[C@H]([C@@H](C)O)NC(=O)[C@H](Cc2ccccc2)NC(=O)[C@H]([C@@H](C)CC)NC(=O)[C@H](C(C)C)NC(=O)[C@H](C)NC(=O)[C@H](CCCNC(=N)N)NC1=O | RXFP4 (Homo sapiens, UniProt Q8TDU9, S101A) |  | HEK-293T |  | reference: wild type | Emax | 33 ± 3.81%
CCNC(=O)[C@@H]1CCCN1C(=O)[C@H](CCCNC(=N)N)NC(=O)[C@H](CC(C)C)NC(=O)[C@@H](COC(C)(C)C)NC(=O)[C@H](Cc1ccc(O)cc1)NC(=O)[C@H](CO)NC(=O)[C@H](Cc1c[nH]c2ccccc12)NC(=O)[C@H](Cc1c[nH]cn1)NC(=O)[C@@H]1CCC(=O)N1 | GNRHR (Homo sapiens, UniProt P30968) | inositol phosphate, agonist, TR-FRET | HEK-293T | 1 h |  | Emax | 100%
CC[C@H](C)[C@H](NC(=O)[C@@H]1CCCN1C(=O)[C@@H](NC(=O)[C@@H](N)Cc1ccccc1)C(C)C)C(=O)N[C@@H](Cc1ccccc1)C(=O)N[C@H](C(=O)N[C@@H](Cc1ccc(O)cc1)C(=O)NCC(=O)N[C@@H](CCC(=O)O)C(=O)N[C@@H](CC(C)C)C(=O)N[C@@H](CCC(N)=O)C(=O)N[C@@H](CCCNC(=N)N)C(=O)N[C@@H](CCSC)C(=O)N[C@@H](CCC(N)=O)C(=O)N[C@@H](CCC(=O)O)C(=O)N[C@@H](CCCCN)C(=O)N[C@@H](CCC(=O)O)C(=O)N[C@@H](CCCNC(=N)N)C(=O)N[C@@H](CC(N)=O)C(=O)N[C@@H](CCCCN)C(=O)NCC(=O)N[C@@H](CCC(N)=O)C(=O)O)[C@@H](C)O | Motilin receptor (MLNR, Homo sapiens, UniProt O43193, del183-219) | IP1 accumulation, agonist, IP-One HTRF | AD293 cells | 1 h, 37 °C |  | Emax | 149 ± 9.3%
CCOC(=O)C(CC)(CCCSCCOCCN)NC(=O)c1ccc(C2CC2)c(Cc2ccc(F)cc2)n1 (centres unmarked) | CNR2 | cAMP, agonist |  |  |  | Emax | 93%
CCc1cc(O)cc2c(/C=N/NC(=N)NCCc3ccc(Cl)cc3)c[nH]c12 | RXFP3 (Homo sapiens, UniProt Q9NSD7, V375T) |  | HEK-293T |  | reference: wild type | Emax | 63.7 ± 8.33%
CCOC(=O)C(CC)(CCCSCCCCCCNC(=O)OC(C)(C)C)NC(=O)c1ccc(C2CC2)c(Cc2ccc(F)cc2)n1 (centres unmarked) | CNR2 | cAMP, agonist |  |  |  | Emax | 85%
COc1ccc(C(=O)c2c(C(=O)NCCCN(C)C)oc3ccc(Cl)cc3c2=O)cc1OC | GHSR (Homo sapiens, UniProt Q92847, P200A) | intracellular Ca2+, agonist | HEK293T transiently transfected |  |  | Emax | 70.2 ± 9.9%
Cc1ncsc1-c1ccc(C(C)NC(=O)C2CC(O)CN2C(=O)C(NC(=O)CCCCCCCCCCN2CCCC(Nc3ncc(Cl)c(Nc4ccccc4S(=O)(=O)C(C)C)n3)C2)C(C)(C)C)cc1 (centres unmarked) | 22Rv1 | RNA-seq, refers to: ZSCAN12 mRNA |  | concentration not given | reference: DMSO | log2 fold change | -2.37
CC(C)C[C@H](NC(=O)[C@H](C)NC(=O)[C@H](CO)NC(=O)[C@@H]1CCCN1C(=O)[C@@H]1CCCN1C(=O)[C@H](CCC(N)=O)NC(=O)[C@H](CC(C)C)NC(=O)[C@@H](N)[C@@H](C)O)C(=O)N[C@@H](CCCNC(=N)N)C(=O)N[C@@H](CCCNC(=N)N)C(=O)N[C@@H](CCCNC(=N)N)C(=O)N[C@@H](Cc1c[nH]cn1)C(=O)N[C@@H](Cc1ccc(O)cc1)C(=O)N[C@@H](Cc1c[nH]cn1)C(=O)N[C@@H](Cc1c[nH]cn1)C(=O)N[C@@H](C)C(=O)N[C@@H](CC(C)C)C(=O)N1CCC[C@H]1C(=O)N1CCC[C@H]1C(=O)N[C@@H](CO)C(=O)N[C@@H](CCCNC(=N)N)C(=O)O | C3AR1 | GoA protein dissociation, agonist, NanoBiT |  |  | reference: TLQP-21 | Emax | 45.2 ± 3.13%
COc1cc(C2C(NC(=O)c3ccc(NC(=O)OC(C)(C)C)cc3)(C(=O)O)C(c3ccc(OC(=O)c4cccs4)c(OC)c3)C2(NC(=O)c2ccc(NC(=O)OC(C)(C)C)cc2)C(=O)O)ccc1OC(=O)c1cccs1 (centres unmarked) | GLP1R (Homo sapiens, UniProt P43220, L384A) | cAMP accumulation, agonist |  | receptor mutant | reference: wild type | Emax | 4.85 ± 3.17%

Some of these lines once more:
Compound | target or system | assay | system | setting | how to read | endpoint | result
CCNC(=O)[C@@H]1CCCN1C(=O)[C@H](CCCNC(=N)N)NC(=O)[C@H](CC(C)C)NC(=O)[C@@H](COC(C)(C)C)NC(=O)[C@H](Cc1ccc(O)cc1)NC(=O)[C@H](CO)NC(=O)[C@H](Cc1c[nH]c2ccccc12)NC(=O)[C@H](Cc1c[nH]cn1)NC(=O)[C@@H]1CCC(=O)N1 | GNRHR (Homo sapiens, UniProt P30968) | inositol phosphate, agonist, TR-FRET | HEK-293T | 1 h |  | Emax | 100%
CC[C@H](C)[C@H](NC(=O)[C@@H]1CCCN1C(=O)[C@@H](NC(=O)[C@@H](N)Cc1ccccc1)C(C)C)C(=O)N[C@@H](Cc1ccccc1)C(=O)N[C@H](C(=O)N[C@@H](Cc1ccc(O)cc1)C(=O)NCC(=O)N[C@@H](CCC(=O)O)C(=O)N[C@@H](CC(C)C)C(=O)N[C@@H](CCC(N)=O)C(=O)N[C@@H](CCCNC(=N)N)C(=O)N[C@@H](CCSC)C(=O)N[C@@H](CCC(N)=O)C(=O)N[C@@H](CCC(=O)O)C(=O)N[C@@H](CCCCN)C(=O)N[C@@H](CCC(=O)O)C(=O)N[C@@H](CCCNC(=N)N)C(=O)N[C@@H](CC(N)=O)C(=O)N[C@@H](CCCCN)C(=O)NCC(=O)N[C@@H](CCC(N)=O)C(=O)O)[C@@H](C)O | Motilin receptor (MLNR, Homo sapiens, UniProt O43193, del183-219) | IP1 accumulation, agonist, IP-One HTRF | AD293 cells | 1 h, 37 °C |  | Emax | 149 ± 9.3%
